# Experimental data gathered from unrelated publications.
# Lines come from different studies, so protocols differ. ± gives the spread as reported.
Structure (SMILES),target or system,test,system,setting,how to read,endpoint,result
CO[C@H]1CC[C@H](N2C(=O)CNc3ncc(-c4ccc(C(C)(C)O)nc4)nc32)CC1,,,"patients, urine","oral, 30 mg, day -1, geometric mean",,urinary excretion Ae(0-24 h),28100 ng
CNCc1ccc(-c2[nH]c3cc(F)cc4c3c2CCNC4=O)cc1,,,patients,"oral, 840 mg twice daily, all grades",,asthenia/fatigue incidence,33.3%
C/C(=N\c1ccc(O)cc1)c1cc2ccccc2n1C,,,processed rat plasma sample,"1.5 ng/mL, 24 h, room temperature, autosampler tray",reference: nominal,remaining compound,93.1 ± 3.4%
CNC(=O)c1ccc(-c2cnc3ncc(Cc4ccc5ncccc5c4)n3n2)cc1F,,,Japanese patients,"oral, 400 mg, grade 3/4",,Pyrexia treatment discontinuation,0%
NCCONC(=O)[C@@H]1CC[C@@H]2CN1C(=O)N2OS(=O)(=O)O,,measured: urinary leukocytes positive,healthy Chinese men,"intravenous, 2 g, treatment-emergent",,adverse event incidence,0%
CCCCC1=NC2(CCCC2)C(=O)N1Cc1ccc(-c2ccccc2S(=O)(=O)Nc2noc(C)c2C)c(COCC)c1,,,"healthy adult volunteers, plasma","oral, 1600 mg, 14 days repeated dosing, fasted, crushed tablet",,AUC(0-inf),102000 ng·h/mL
CCn1ncc2c1-c1cnc(N)c(c1)O[C@H](C)c1cc(F)ccc1-c1nn(C)nc1C2,,,"female athymic nude mice, sample A PDX","oral, 0.04 mg/kg once daily for 1 days, 12 h",,unbound plasma trough concentration,0.6 ± 0.2 nM
O=C(Nc1nc2cccc(-c3ccc(CN4CCS(=O)(=O)CC4)cc3)n2n1)C1CC1,,measured: arthropod sting allergy,rheumatoid arthritis patients,"oral, 300 mg once daily, 4 weeks, any relatedness",,treatment-emergent adverse events,0%
Cc1cc(-c2nccc3c2ccn3CC(=O)Nc2ccc(-c3cnccn3)cn2)ccn1,,,human,"20 mg once daily, multiple ascending dose",,subjects with procedural pain,0%
COc1cccc2c1OCCC2NS(=O)(=O)c1csnc1C(=O)O (centres unmarked),,"colloidal aggregate formation, dynamic light scattering",50 mM potassium phosphate buffer,"200 µM, pH 7.0, 1% DMSO",higher = more aggregation,DLS scattered light intensity,462000 counts/s
CCn1cc(C(=O)N2CCOCC2)c(=O)c2cc(NC3Cc4ccccc4C3)cnc21,,,"human, fed","oral suspension, 600 mg/day twice daily, day 1, arithmetic mean",,AUC(0-12),7160 ng·h/mL
OC[C@H]1O[C@@H](c2ccc(F)c(Cc3cc4ccccc4s3)c2)[C@H](O)[C@@H](O)[C@@H]1O,,,"Japanese patients, type 1 diabetes","oral, 50 mg/day, onset day 9",reference: patients,hypoglycaemia-related adverse event,7%
Cc1c(C(=O)O)ccc2c3n(nc12)[C@@H]1[C@H](C3)N(CC2CC2)[C@@]2(C(=O)Nc3cc(Cl)ccc32)[C@H]1c1cccc(Cl)c1F,,,human patients phase Ia,"oral, dose not given, grade ≥3, all patients",,gastroesophageal reflux incidence,0%
COc1cccc(OC)c1-c1cc(C(=O)NC2(C(=O)O)C3CC4CC(C3)CC2C4)nn1-c1ccc(C(=O)N(C)CCCN(C)CCCN(C)C(=O)CN2CCN(CC(=O)[O-])CCN(CC(=O)[O-])CCN(CC(=O)[O-])CC2)cc1C(C)C.[177Lu+3] (centres unmarked),,,"mouse, HT-29 xenograft, brain",24 h post injection,,tissue uptake,0.055 %ID/g
Cn1cc(-c2ccc(-c3cncc(Cl)c3N3CCC4(CCNC4=O)CC3)cc2)cn1,COLO 205,"gene expression, microarray, measured: PNRC1 mRNA",,"concentration not given, 6 h",reference: untreated cells,log2 fold change,2.55
O=C(/C=C/CCc1ccc(O)cc1)/C=C/c1ccc(O)cc1,,,nude mouse MCF7 xenograft,"20 mg/kg, day 2",,body weight,20.6 ± 0.92 g
CCOc1ccc2nc(NC(=O)c3ccc4ncsc4c3)sc2c1,,haemolysis,sheep erythrocytes,"1 h, pH 7.5",,HC50,> 128 µg/mL
Cc1c(-c2ccc(N3CCc4cccc(C(=O)Nc5nc6ccccc6s5)c4C3)nc2C(=O)O)cnn1CC12CC3(C)CC(C)(C1)CC(OCCNCC[C@H](O)CO)(C3)C2,,,"beagle dog, anaesthetised","intravenous infusion, 0.3 mg/kg/min, 75 min",reference: vehicle,PR interval change,-3 ms
Cc1nc2cccc(OCC(C)(C)C(=O)NC(C)C)c2c(N)c1C(=O)O,,,"male CD-1 mouse, bone marrow","oral, 2000 mg/kg, 48 h",,micronucleated normochromatic erythrocytes,1.1 per 2000 PCEs
O=C(COc1ccc(Cl)cc1)NC12CC(c3nnc([C@H]4C[C@@H](OC(F)(F)F)C4)o3)(C1)C2,,,"healthy human both sexes, plasma","oral, 260 mg once daily, day 1, mean",,Cmax,3.89 µM
COc1ncc(-c2nc3c(n2C(C)C)[C@H](c2ccc(Cl)cc2)N(c2cc(Cl)cn(C)c2=O)C3=O)c(OC)n1,,LC-MS/MS,"human, plasma","oral, 30 mg, cycle 1 day 8, low-dose arm",,Cmax,169 ng/mL
CC(=O)N(C)[C@H]1CCN(C(=O)c2cnc3c(c2)C[C@](C)(c2ccc(F)cc2)N3)C1,,,"male humans, plasma","oral, dose not given, multiple dosing",,duration of detectable plasma levels,~5 days
CCOc1c([C@H](C)n2nc(C)c3c(N)ncnc32)cc(Cl)c(F)c1[C@@H]1CNC(=O)C1,,measured: QTcF change ≤30 ms,previously treated B-cell malignancy,"oral, 10 mg once daily, baseline QTcF ≤450 ms",reference: baseline,ECG observations,100%
CN[C@@H]1COc2c(S(=O)(=O)NC(=O)Nc3c4c(cc5c3CCC5)CCC4)cnn2C1,,,"human, urine","oral, 450 mg, 0-48 h",,fraction excreted in urine,0.18
CC[C@H](C)[C@H](NC(=O)[C@H](Cc1ccccc1)NC(=O)[C@H](CCC(=O)O)NC(=O)[C@H](CCCCNC(=O)COCCOCCNC(=O)COCCOCCNC(=O)CC[C@H](NC(=O)CCCCCCCCCCCCCCCCC(=O)O)C(=O)O)NC(=O)[C@H](C)NC(=O)[C@H](C)NC(=O)[C@H](CCC(N)=O)NC(=O)CNC(=O)[C@H](CCC(=O)O)NC(=O)[C@H](CC(C)C)NC(=O)[C@H](Cc1ccc(O)cc1)NC(=O)[C@H](CO)NC(=O)[C@H](CO)NC(=O)[C@@H](NC(=O)[C@H](CC(=O)O)NC(=O)[C@H](CO)NC(=O)[C@@H](NC(=O)[C@H](Cc1ccccc1)NC(=O)[C@@H](NC(=O)CNC(=O)[C@H](CCC(=O)O)NC(=O)C(C)(C)NC(=O)[C@@H](N)Cc1cnc[nH]1)[C@@H](C)O)[C@@H](C)O)C(C)C)C(=O)N[C@@H](C)C(=O)N[C@@H](Cc1c[nH]c2ccccc12)C(=O)N[C@@H](CC(C)C)C(=O)N[C@H](C(=O)N[C@@H](CCCNC(=N)N)C(=O)NCC(=O)N[C@@H](CCCNC(=N)N)C(=O)NCC(=O)O)C(C)C,,"QT interval corrected for heart rate, 12-lead Holter ECG",healthy human subjects,"subcutaneous, 1.5 mg once weekly, 26 h post-dose, steady state","reference: placebo, time-matched baseline",placebo-subtracted change in QTcI,-6.1 ms
CC1CC(C(=O)O)N1C(=O)CCCCc1nc2ccccc2s1 (centres unmarked),,"colloidal aggregate formation, dynamic light scattering",50 mM potassium phosphate buffer,"200 µM, pH 7.0, 1% DMSO",higher = more aggregation,DLS scattered light intensity,633000 counts/s
C[C@]1(Cn2ccnn2)[C@H](C(=O)O)N2C(=O)C[C@H]2S1(=O)=O,,,human whole blood,"concentration not given, 48 h, 4 °C",,deviation from nominal concentration,4.1%
CC(C)c1nc(CN(C)C(=O)N[C@H](C(=O)N[C@@H](Cc2ccccc2)C[C@H](O)[C@H](Cc2ccccc2)NC(=O)OCc2cncs2)C(C)C)cs1,,,Macaca nemestrina,"subcutaneous, fast pathway, TLC-ART",,lymph node sequestered fraction,0.89
CO[C@@H]1[C@H](O)[C@@H](CO)O[C@H]1n1c([N+](=O)[O-])nc2c(=O)[nH]c(N)nc21,,"depurination, RP-HPLC",citrate-phosphate buffer 0.5 mM,"5440 min, pH 7, 37 °C",,nucleoside remaining fraction,0.423
O=C1CCc2ccc(OCCCCN3CCN(c4cccc(Cl)c4Cl)CC3)cc2N1,,measured: Hypertension,"patients, CYP2D6 intermediate metabolizers","dose not given, long-acting oral or depot",,adverse event incidence,1.9%
CN1CCN(c2cccc3c2CCN(C(=O)/C=C/c2c(-n4cnnn4)ccc(Cl)c2F)[C@@H]3C(=O)Nc2ccc(C(=O)O)cc2)C(=O)C1,,,healthy human subjects,"intravenous infusion, 1.5 mg/h, 2 h",,subjects with headache,16.7%
Cc1ccc([C@@H]2O[C@H](CO)[C@@H](O)[C@H](O)[C@H]2O)cc1Cc1ccc(-c2ccc(F)cc2)s1,,,Japanese type 2 diabetes patients,"25 mg, day 16, 24 h urine collection",reference: baseline,urinary potassium excretion change,-3.44 mEq
COc1cc(C(=O)NC2CCN(C)CC2)c(F)cc1Nc1ncc(C(F)(F)F)c(Oc2cccc3c2C(=O)N(C)C3)n1,,,"human patients, plasma","oral, 10 mg single dose, geometric mean",,dose-normalised Cmax,4.48 nmol/L per mg
Cn1cc([C@H]2C[C@H]3CSC(N)=N[C@@]3(c3ccc(F)cc3F)CO2)cn1,,,"male 129/SVE mouse, CSF","subcutaneous, 10 mg/kg, 9 h",,CSF concentration,8 nM
N#Cc1ccc2c(c1)[C@H]1CCCN(C(=O)c3ccc4[nH]cnc4c3)[C@H]1C2,,,"human, female","10 mg, end of trial",,DHEA-S level,2.2 µmol/L
CCc1ccc(C(=O)Oc2ccc(C#N)c(F)c2)cc1,,measured: compound,"human pregnant women, male fetuses, maternal serum","dose not given, paired maternal-cord samples, mean",,concentration,5.33 ng/mL
CNC(=O)c1ccc(-c2cnc3ncc(Cc4ccc5ncccc5c4)n3n2)cc1F,,"CTCAE v4.0, any causality",human cancer patients,"oral, 600 mg twice daily, expansion, other tumours, RP2D",,non-cardiac chest pain incidence (all grades),6%
O=c1[nH]c2ccc(NS(=O)(=O)c3cc(Cl)cc(Cl)c3O)cc2s1,,"colloidal aggregate formation, dynamic light scattering",50 mM potassium phosphate buffer,"200 µM, pH 7.0, 1% DMSO",higher = more aggregation,DLS scattered light intensity,338000 counts/s
CCCCCCCOc1ccc(CCC(N)(CO)CO)cc1C(F)(F)F.Cl,,,"healthy men, urine","oral, 0.5 mg once daily, day 21, fed state",reference: dose,urinary excretion,0.126%
CCn1c(=O)c(-c2cc(NC(=O)Nc3ccccc3)c(F)cc2Br)cc2cnc(NC)cc21,,measured: accidental overdose,"healthy human, matched to moderate hepatic impairment","oral, 50 mg single dose",,participants with grade ≥ 3 TEAE,0%
O=C(OC(C(F)(F)F)C(F)(F)F)N1CCN(Cc2cccc(Oc3ccccc3)c2)CC1,,PET blocking study,"rhesus monkey, brain OCC","0.01 mg/kg, compound pretreatment, together with: [18F]T-401 tracer",,k2,0.038 min⁻¹
CC(=O)c1c(C)c2cnc(Nc3ccc(N4CCNCC4)cn3)nc2n(C2CCCC2)c1=O,,LC-MS/MS,"human, plasma","oral, 125 mg, cycle 1 day 15, together with: neratinib 240 mg",,Ctrough,163 ng/mL
CC(C)(NS(=O)(=O)c1cccc(Cl)c1O)c1ccc2ccccc2c1,,"colloidal aggregate formation, dynamic light scattering",50 mM potassium phosphate buffer,"200 µM, pH 7.0, 1% DMSO",higher = more aggregation,DLS scattered light intensity,417000 counts/s
CCc1cc(C(=O)NC)c2nccc(N3CCc4c(cc(Cn5ccnc5)cc4-c4cn(C)nc4C(F)(F)F)C3=O)c2c1,,,Sprague Dawley rat,"oral, 50 mg/kg once daily, 7 days",,kidney weight,2.58 ± 0.089 g
